{"data": "Assay results of several laboratories", "note": "Each line is one published result; not all experiments were run side by side. ± gives the spread as reported."}
{"Compound": "CSCC[C@H](NC(=O)[C@H](CC(C)C)NC(=O)[C@H](Cc1c[nH]cn1)NC(=O)CNC(=O)[C@@H](NC(=O)[C@H](C)NC(=O)[C@H](Cc1c[nH]c2ccccc12)NC(=O)[C@H](CCC(N)=O)NC(=O)CNC(=O)[C@H](CO)NC(=O)CNC(=O)CCCCCCCNC(=O)CCC(=O)Nc1ccc(CNC23CNCCNCC(N)(CNCCNC2)CNCCNC3)cc1)C(C)C)C(N)=O [copper-64 labelled]", "host": "female SCID mice, PC-3 xenograft", "matrix": "bone", "route": "intravenous", "dose": "0.6 MBq", "time": "1 h", "tissue uptake": "1.41 ± 0.335 %ID/g"}
{"Compound": "N=C(N)NCCC[C@@H]1NC(=O)[C@H](CCCCNC(=O)CCOCCOCCOCCOCCNC(=O)CC[C@H](NC(=O)CCOCCOCCOCCOCCNC(=O)[C@H](CCCCNC(=O)c2ccc(NN)nc2)NC(=O)c2ccc(NN)nc2)C(=O)NCCOCCOCCOCCOCCC(=O)NCCCC[C@@H]2NC(=O)[C@@H](Cc3ccccc3)NC(=O)[C@H](CC(=O)O)NC(=O)CNC(=O)[C@H](CCCNC(=N)N)NC2=O)NC(=O)[C@@H](Cc2ccccc2)NC(=O)[C@H](CC(=O)O)NC(=O)CNC1=O [technetium-99m labelled]", "host": "female athymic nude mice", "matrix": "kidneys", "route": "intravenous", "dose": "0.1 MBq", "time": "1 h", "setting": "U-87 MG glioma xenograft", "tissue uptake": "9.28 ± 1.14 %ID/g"}
{"Compound": "N=C(N)NCCC[C@@H]1NC(=O)[C@H](CCCCNC(=O)CC[C@H](NC(=O)CCOCCOCCOCCOCCNC(=O)CN2CCN(CC(=O)O)CCN(CC(=O)O)CCN(CC(=O)O)CC2)C(=O)NCCCC[C@@H]2NC(=O)[C@@H](Cc3ccccc3)NC(=O)[C@H](CC(=O)O)NC(=O)CNC(=O)[C@H](CCCNC(=N)N)NC2=O)NC(=O)[C@@H](Cc2ccccc2)NC(=O)[C@H](CC(=O)O)NC(=O)CNC1=O [indium-111 labelled]", "host": "female athymic nude mice", "matrix": "kidney", "route": "intravenous", "dose": "3 µCi", "time": "72 h", "setting": "U-87 MG glioma xenograft", "tissue uptake": "1.44 ± 0.13 %ID/g"}
{"Compound": "N=C(N)NCCC[C@@H]1NC(=O)[C@H](CCCCNC(=O)CC[C@H](NC(=O)[C@H](CCCCNC(=O)c2ccc(NN)nc2)NC(=O)c2ccc(NN)nc2)C(=O)NCCCC[C@@H]2NC(=O)[C@@H](Cc3ccccc3)NC(=O)[C@H](CC(=O)O)NC(=O)CNC(=O)[C@H](CCCNC(=N)N)NC2=O)NC(=O)[C@@H](Cc2ccccc2)NC(=O)[C@H](CC(=O)O)NC(=O)CNC1=O [technetium-99m labelled]", "host": "female athymic nude mice", "matrix": "brain", "route": "intravenous", "dose": "0.1 MBq", "time": "1 h", "setting": "U-87 MG glioma xenograft", "tissue uptake": "0.12 ± 0.01 %ID/g"}
{"Compound": "CC(C)C[C@H](NC(=O)[C@H](Cc1ccc(O)cc1)NC(=O)[C@@H](CCCNC(=N)N)NC(=O)[C@@H](CO)NC(=O)[C@H](Cc1ccccc1)NC(=O)[C@H](CC1CCCCC1)NC(=O)[C@H](CC(=O)O)NC(=O)CCC(C(=O)O)N1CCCN2CCN(CCCN(CC(=O)O)CC2)CC1)C(=O)N[C@@H](Cc1c[nH]c2ccccc12)C(=O)N[C@@H](CO)C(=O)O (some centres unmarked) [copper-64 labelled]", "host": "female NMRI nude mice", "matrix": "intestine", "time": "22 h p.i.", "tissue uptake": "1.3 ± 0.1 %ID/g"}
{"Compound": "N=C(N)NCCC[C@H](NC(=O)[C@H](CCCCN)NC(=O)[C@H](CCC(N)=O)NC(=O)CCOCCOCCOCCNC(=O)CN1CCN(CC(=O)O)CCN(CC(=O)O)CCN(CC(=O)O)CC1)C(=O)N[C@@H](CCCCN)C(=O)N[C@@H](CCCNC(=N)N)C(=O)N[C@@H](CCCCN)C(=O)N[C@@H](CCCCN)C(=O)N[C@@H](CO)C(=O)N[C@@H](CCCNC(=N)N)C(=O)N[C@@H](Cc1ccc(O)cc1)C(=O)N[C@@H](CCCCN)C(=O)N[C@@H](CO)C(=O)O [copper-64 labelled]", "host": "male C57BL/6 mice, B16-F10 tumour", "matrix": "brain", "route": "intravenous", "time": "60 min", "tissue uptake": "0.06 ± 0.01 %ID/g"}
{"Compound": "N=C(N)NCCC[C@@H]1NC(=O)[C@H](CCCCNC(=O)CNC(=O)CNC(=O)CNC(=O)CC[C@H](NC(=O)CCOCCOCCOCCOCCNC(=O)CC[C@H](NC(=O)CN2CCN(CC(=O)O)CCN(CC(=O)O)CCN(CC(=O)O)CC2)C(=O)NCCOCCOCCOCCOCCC(=O)N[C@@H](CCC(=O)NCC(=O)NCC(=O)NCC(=O)NCCCC[C@@H]2NC(=O)[C@@H](Cc3ccccc3)NC(=O)[C@H](CC(=O)O)NC(=O)CNC(=O)[C@H](CCCNC(=N)N)NC2=O)C(=O)NCC(=O)NCC(=O)NCC(=O)NCCCC[C@@H]2NC(=O)[C@@H](Cc3ccccc3)NC(=O)[C@H](CC(=O)O)NC(=O)CNC(=O)[C@H](CCCNC(=N)N)NC2=O)C(=O)NCC(=O)NCC(=O)NCC(=O)NCCCC[C@@H]2NC(=O)[C@@H](Cc3ccccc3)NC(=O)[C@H](CC(=O)O)NC(=O)CNC(=O)[C@H](CCCNC(=N)N)NC2=O)NC(=O)[C@@H](Cc2ccccc2)NC(=O)[C@H](CC(=O)O)NC(=O)CNC1=O [indium-111 labelled]", "host": "athymic nude mice, female, U-87 MG glioma xenograft", "matrix": "U-87 MG tumour", "route": "intravenous", "dose": "3 µCi", "time": "24 h", "tissue uptake": "5.79 ± 0.67 %ID/g"}
{"Compound": "CSCC[C@H](NC(=O)[C@H](CC(C)C)NC(=O)[C@H](Cc1c[nH]cn1)NC(=O)CNC(=O)[C@@H](NC(=O)[C@H](C)NC(=O)[C@H](Cc1c[nH]c2ccccc12)NC(=O)[C@H](CCC(N)=O)NC(=O)CCCCCCCNC(=O)CCC(=O)Nc1ccc(CNC23CNCCNCC(N)(CNCCNC2)CNCCNC3)cc1)C(C)C)C(N)=O [copper-64 labelled]", "host": "female SCID mice, PC-3 xenograft", "matrix": "kidney", "route": "intravenous", "dose": "0.6 MBq", "time": "1 h", "tissue uptake": "9.37 ± 0.898 %ID/g"}
{"note": "A few entries again:"}
{"Compound": "CSCC[C@H](NC(=O)[C@H](CC(C)C)NC(=O)[C@H](Cc1c[nH]cn1)NC(=O)CNC(=O)[C@@H](NC(=O)[C@H](C)NC(=O)[C@H](Cc1c[nH]c2ccccc12)NC(=O)[C@H](CCC(N)=O)NC(=O)CCCCCCCNC(=O)CCC(=O)Nc1ccc(CNC23CNCCNCC(N)(CNCCNC2)CNCCNC3)cc1)C(C)C)C(N)=O [copper-64 labelled]", "host": "female SCID mice, PC-3 xenograft", "matrix": "kidney", "route": "intravenous", "dose": "0.6 MBq", "time": "1 h", "tissue uptake": "9.37 ± 0.898 %ID/g"}
